Measured values gathered from unrelated publications.
Parts stem from different laboratories: compare values within a part only.
UniProt P61077, sequence (whole entry, looked up): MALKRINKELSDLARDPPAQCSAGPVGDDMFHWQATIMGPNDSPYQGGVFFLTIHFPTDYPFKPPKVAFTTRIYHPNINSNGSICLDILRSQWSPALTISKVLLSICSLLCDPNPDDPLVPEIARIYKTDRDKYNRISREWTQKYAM

Study 1 — technique: RNA Bind-n-Seq; molecule type: RNA; sample: in vitro; concentration: 365 nM; baseline: no-protein control; direction: higher = stronger binding; quantity: RBNS enrichment (R)
Target: RNA binding protein fox-1 homolog 2, RRM domain, GST-SBP tag (RBFOX2, Homo sapiens, UniProt O43251-10, residues 100-194)
Setting: natural RNA segment, single round, ends assumed
All sequences stand within: GGGAGUUCUACAGUCCGACGAUC … UGGAAUUCUCGGGUGCCAA
Residues (chain): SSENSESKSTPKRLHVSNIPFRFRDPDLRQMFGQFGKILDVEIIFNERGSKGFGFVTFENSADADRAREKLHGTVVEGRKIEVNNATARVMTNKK
UGUAUUAUUUAUUCAUUCACUGUUUUCUAGUGUUUCUGUGUUUAUUACUGUUCAGCAUCAUCUUGGUUAUAUACUGAAAAUCAAACACUUUACUACAGUUGUGAAUUAGU: 0.381
CUUGAUUUAUCACACAAAGCAGAAUAGUAUUUUUAUAUUUAAAUGUAAAGACAAAAAACUAUAUGUAUGGUUUUGUGGAUUAUGUGUGUUUUGCUAAAGGAAAAAACCAU: 0.489
AGCCUAUAUCAGUCAUUUUAGUGUCUGACCUAAUGCUUGGCACUGUCAGUGCUUUGUUUAGAUGAUGACUUAAGACUUUUCAGCCUGUUUUACACACCCCAGCUCCCGUU: 0.246
AGGGAGCCACUGUCGCCGCAGCACACCAGGAUUGGGGCUCUCAGGCUGUGCUGCCCUAGACCCGCCACACCAAGCCAUCCGCCCCUCACAGACCCUACAAGACGAUGUUA: 0.544
UAUUAACUUGUUCAAUUCCCUUAACUCUAUGAAAUAGGCAUUAUUACUACCCCCAGGUUUUCAAAUGAAUUAACAGAAGCAGAGGUGUUGAGUAAAUGUAUCCAAGAGAC: 0.376
AUAAUCACGCCACUGCACUCCAGCCUGGGCUGCAGGGUGAGGUCCUGUCUCUGGAAAAAAAAAAAAAAAAAAAAGGAAUAGGUAAAAGGGACAGAGGUGAAAUUUUGAGU: 0.704
AAUGUCACAAGAAAUUGUUUUCUGCAAAUUCUCUAGUAUAGAAAGUUUUGUAGAAGAAAAAUUAUUGUGUUUAGGGGUAUAAUAUUAUAUGUUUUCAUAUUAUGAAAUGA: 0.589
UGUGGCCCUUCCCCAGAGGAAUUGUGGAGACUGUCCCAUGGAACAAACCCUCAGGCACCAGCACAGGGCUCUGGGUGACUCAGUAAAACUAACGUUUGUCUCUGACAAGA: 0.29

Study 2 — technique: aptamer microarray, sandwich; molecule type: DNA with 2'F-ANA; sample: in vitro; concentration: 200 nM; added: Cy3 exosite-II aptamer, 400 nM; direction: higher = stronger binding; quantity: mean fluorescence intensity; sequence: GGTTGGTGTGGTTGG
Target: Prothrombin, mature alpha-thrombin (F2, Homo sapiens, UniProt P00734)
Setting: whole 15-mer aptamer, many near background
2'F-ANA at 5 6 10 11 14: 44.4 a.u.
2'F-ANA at 1 2 5 6 13 14 15: 55.3 a.u.
2'F-ANA at 1 4 7 8 9 10 12 14: 45.1 a.u.
2'F-ANA at 4 5 6 8 9 11 12 13 14 15: 47.4 a.u.
2'F-ANA at 1 2 3 4 5 7 8 9 11 12 13 14 15: 51.4 a.u.
2'F-ANA at 4 5 10 11 12 13 15: 49.1 a.u.
2'F-ANA at 1 4 5 10 11 15: 46.8 a.u.
2'F-ANA at 2 5 12 14 15: 46.8 a.u.

Single results of other studies
B1: RNF17 RING domain (UniProt Q9BXT8); chain SQPWGAAEIQCTRCGRRVSRSSGHHCELQCGHAFCELCLLMTEECTTIICPDCEVATAVNTRQR
NUP155 (Homo sapiens, UniProt O75694) — cross-linked residues (NUP58 (Homo sapiens, UniProt Q9BVL2); cross-linking MS; cell fractions; added: DMTMM): P2 to E354
B1 (RNF17 RING domain) — lacZ reporter activity (UBE2D3 UBC core domain (UniProt P61077); yeast two-hybrid; yeast; mostly zero background; baseline: not given, higher = stronger interaction): 0
GLDC (Homo sapiens, UniProt P23378) — cross-linked residues (ZC3H3 (Homo sapiens, UniProt Q8IXZ2); cross-linking MS; cell fractions; added: DSSO): K636 to S232
JUP (Homo sapiens, UniProt P14923) — cross-linked residues (DSP (Homo sapiens, UniProt P15924); cross-linking MS; cell fractions; added: DMTMM): E154 to K444
SNRNP70 (Homo sapiens, UniProt P08621) — cross-linked residues (ACOT9 (Homo sapiens, UniProt Q9Y305); cross-linking MS; cell fractions; added: DMTMM): E122 to K156

Repeated from above (study 1):
CUUGAUUUAUCACACAAAGCAGAAUAGUAUUUUUAUAUUUAAAUGUAAAGACAAAAAACUAUAUGUAUGGUUUUGUGGAUUAUGUGUGUUUUGCUAAAGGAAAAAACCAU: 0.489
